{"data": "Measurements collected from several papers", "note": "A part holds a random share of what one study measured."}
{"data": "Block 1", "target": "RNA binding protein fox-1 homolog 2, RRM domain, GST-SBP tag (RBFOX2, Homo sapiens, UniProt O43251-10, residues 100-194)", "technique": "RNA Bind-n-Seq", "form": "RNA", "matrix": "in vitro", "concentration": "365 nM", "notes": "natural RNA segment, single round, ends assumed", "baseline": "no-protein control", "reading": "higher = stronger binding", "shared flanks, not repeated": "GGGAGUUCUACAGUCCGACGAUC … UGGAAUUCUCGGGUGCCAA", "Residues (chain)": "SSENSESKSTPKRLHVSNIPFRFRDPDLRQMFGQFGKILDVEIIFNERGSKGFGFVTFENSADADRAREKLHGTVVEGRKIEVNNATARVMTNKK"}
{"Strand": "AACCUCUCUCAACCAGUGAAACAUCCCCUAAACCUGUCCAUCCCUGACUCCUGUCCCCAAGGGAGGCAUUGUGGUCCUGUCCCCUUGGUAGAGCUCCUGAGGUACUGUUC", "RBNS enrichment (R)": 0.702}
{"Strand": "UGUGCAAAGAAACUUUCUAACCCUUACCGGACACCGCACAGCUUCCUGCACUCAAGCCGCAGGGUAGUACAGUUUUACCACAGAGGGACUCUUGAGCAAUGGAGUCACGU", "RBNS enrichment (R)": 0.483}
{"Strand": "CAUUUGUUUGCCUUUCUGUUAUUUUUCCCUCUGCUUCUAUGUAUCUCUGUGAAUAAAUCCUUGUUAAGUUAACCCUUUGCUCUUCCUCCCAUGUGUAUUUUCUUACAUAC", "RBNS enrichment (R)": 0.974}
{"Strand": "AUCGGUCCCCCUGCUGCUCUGUCCACUACAAGGUCAGCCACCUGCCAGGAGGCCACAGACAACAGGAAGAACCAAGCAGCACUCCAGCCAAGCCGUCACCAAGAGCCCAU", "RBNS enrichment (R)": 0.157}
{"Strand": "GCGAAAAUCCCGAUCACAUUGGACAUCGGCAAAGGCGUGCCAUAAAGAGCGGCCCACAGUCAUGCUACUCCCAUUUAGGAACAUGGGCUUACCAGCUCAAGACUUAUCUA", "RBNS enrichment (R)": 0.358}
{"Strand": "GGCACUCGCAGGAUCCUGCAGUGCUGGGCCCAGAGCCCUUGGACAGGCCUCAGGAGUGGUCAGGACCACCAAGCCCCUCCUCUCCCCCUCCACACCUCUAGACCUGGGGC", "RBNS enrichment (R)": 0.207}
{"Strand": "CCUGUGAGGGCCUGAAGCUGGGCCAGGGCCCGUCGCAGCGGAGCCCCCUCUCAGCAGCCCACCGGGUCCCUCCAGGCUGCUGCCCGUGCGUGGUCUUUCUCCUCCUUUUC", "RBNS enrichment (R)": 0.307}
{"Strand": "UAUCUCUUUUCUUCCAGCCCUGAGUGGCUGCGCUGCUGCCAUAUGUGACAAGUGGUCCUCACCAGUGUUAAGUGCUUCUGGAUUCAUGGGUGAGUUCCUUGGACGACCCC", "RBNS enrichment (R)": 0.349}
{"Strand": "UUAGGGAUUGUUUAGAAAACAAAGAAAGAGCCAAUUAAAUUUUUUAGUUUUUGAAAUUUUUAUUUAUAUGUAUACUUAGAUGAGUAUUUUAAGCUGUCGACCUUUAGUUU", "RBNS enrichment (R)": 1.64}
{"Strand": "GCUAUGCAUGCUGUUGGGACUCGUAUUACAGGGAAUGGCAUUGAGAAGCCAAGUGGGACUCACUGCUGCCAUUCUCCUUGUGCUUGGUCUUCACUAGACCCCAGCCCCCU", "RBNS enrichment (R)": 3.25}
{"Strand": "GGCUCUUCCCGCCUGCAUCCCUCCCCUGUCCACCUUUGUCCAGUGCUAGAUUCACCUCACCCCGGGCAGGAGUGGGGAUGUGGGCGCUCUGUGGUCCUCCCCUCCUGACC", "RBNS enrichment (R)": 1.43}
{"Strand": "CUAUAUUGAUAUUAGAAGAUAUUUGUUUUUUAAAAUAUAUUGAUGUAUGAUAAAGAUGAUCUAAUUUGUGAAUGCAUAUGUAUGUGUGGUUACUUUUUAUAAUGUGAAAU", "RBNS enrichment (R)": 0.8}
{"data": "Block 2", "target": "Hepatocyte nuclear factor 3-alpha (Foxa1, Mus musculus, UniProt P35582, residues 1-468, full length assumed)", "technique": "EMSA with sequencing", "form": "double-stranded DNA, one strand shown", "matrix": "in vitro", "concentration": "10 and 20 nM", "notes": "whole designed probe, mean of two concentrations, ends assumed", "baseline": "negative control set to 0", "reading": "higher = stronger binding", "shared flanks, not repeated": "GTGAGCGGTGCCCATTGATGGGGAAC … TTTCACTGGGATCGTGGGGAC", "Target sequence (chain)": "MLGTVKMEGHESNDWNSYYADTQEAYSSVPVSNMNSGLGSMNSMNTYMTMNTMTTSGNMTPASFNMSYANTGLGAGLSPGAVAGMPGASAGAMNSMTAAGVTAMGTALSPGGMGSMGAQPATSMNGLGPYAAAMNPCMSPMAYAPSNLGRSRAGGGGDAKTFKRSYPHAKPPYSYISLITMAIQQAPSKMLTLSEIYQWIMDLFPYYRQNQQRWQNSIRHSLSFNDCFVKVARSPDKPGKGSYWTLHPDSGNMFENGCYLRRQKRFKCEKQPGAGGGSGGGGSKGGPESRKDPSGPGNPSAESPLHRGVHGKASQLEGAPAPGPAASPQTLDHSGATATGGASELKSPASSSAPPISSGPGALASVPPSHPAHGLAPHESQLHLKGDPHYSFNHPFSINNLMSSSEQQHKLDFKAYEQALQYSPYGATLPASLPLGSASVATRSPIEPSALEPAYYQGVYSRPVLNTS"}
{"Strand": "TTCCAAATACTCTTTTGAATTGAAAATGGTGAGAAGCGTAAATTATATGACACTGGAAACGTCTTTCCTATTTCATTTACGATCAAGAACTACAGATTGCATTTGTATTATGTAGCTACTGTAGAAATTGACCAAATGTTGACAGACAAAAGGCACATGCACCCTGACAAGAGCCAAAACAATCTGGAAGGAA", "normalised bound fraction [ratio]": 0.0043}
{"Strand": "CCAAACAACTCCCACAATGTCCTTCCTACTGATGCATAACTGGTATTTAATAACAAACTATTTGCATTTTAAATTACTTAGAGTGCACTGGAAGATTACTCTGATCTGATCATAAGAAGTATTTTGCCTTGAGGAGGAGTTATGCTGCAGACAAAATTAACTCTCGATTAAAAATTCTACATAATCTTTAAAA", "normalised bound fraction [ratio]": 0.165}
{"Strand": "CTCTGAATGCAGATCACAATCTTTGTTAGTCATCTTTATCTTACTGGTTACTTTGCTACTCAAAGTACTCTTTTCCTATGGTGGAAACTCCCTAGATTACTTATTCTTCCTGACCCAGGTTTAAAAGGCCTGCCTAACCATCTCAGTAGGCTTTTCCTAGCTGATATCCTTCTGAGCTGTGGTAGAGAAAGGG", "normalised bound fraction [ratio]": -0.0441}
{"Strand": "CAGTTTTGCAAATGAGTAGTAATTACATTTATCTATAACTTTTACTATGTTTTTCTTGAATGATATTCTGCATCCAAATTGTATTCTTTCTTCCTGTTTACTTTGTTAGGCCAATCTTATTGTTCTCAGATTCATGAGGGTGCACTGCAATTTTGAGTTCAGAGAGAAGTTGAGAGTAGAAAAGCCTAAAATT", "normalised bound fraction [ratio]": 0.291}
{"Strand": "CCAATGGGGTAGGTCAGCCCCAGTGAACTCTCAAATGACCACTGAAGGAGGAAGTGAGTGCAGAGTGTGATACCACTCACATCCCAGCCCAGACTGTTTGCTCAGCTGGGAGGAGTGTTGCAATTCTTCTTCCTGCAGAGATAACACCCCTTCTCATGGCTTCAGGCATCACCTATCTCCTCTAGGCTGCGCT", "normalised bound fraction [ratio]": 0.192}
{"Strand": "ATCTTCCCCCTCTTCCTTGCCCCACCAGCTCACCTTCCCGGGTTATTTGCAGATAGGAAAATAAATAAAGCCGGCATTCGTTAACCCTCTTCTTAGTTGGCGCTGTCATCGCACTGGATGAATCATGGTCCTTTGGCGACGCCAGGCTCCGGGAGAGCAAAGCACCGTGTCAGGGCCATGATCCGGGGTGGCC", "normalised bound fraction [ratio]": 0.344}
{"Strand": "TTGTTACAAATAATGAGAAAACATTTAGTGAAACACTTTAAACGTGTTTTTTTAAAAGAATATTTATTGTCTTATTGCTAAGAAAGAGTTCAGTGTAATCTTGTATCAGTTTATCACTTGCTCAGAAGAAATTACTTAAAAATAAATGAGGTTGGTTTAGACGTACTAGTCTATTTTTACTGAAACACAAGCA", "normalised bound fraction [ratio]": -0.00221}
{"Strand": "ATACAGGTTTTATAACATATGTAGTTAAGGTTTCAAAAGTGAGATTATGTCTCAACTAACTATAACTGAAATAGAAGAGTGTATCTATTTCAATGTAAACATGTTGACTGATAATGAGAAAAATGATCCTTATAAAGAATAGCAAATCATGATCCTAAGACAGTAAGTGTCAAAGCTGATGGGAGGATGCTAT", "normalised bound fraction [ratio]": 0.244}
{"data": "Block 3", "target": "Interferon regulatory factor 5, full length, phosphomimetic (IRF5, Homo sapiens, UniProt Q13568-2, residues 1-514, S451D/S453D/S456D/S462D)", "technique": "protein-binding microarray", "form": "double-stranded DNA, one strand shown", "matrix": "in vitro", "concentration": "940 nM top", "notes": "60-bp whole probe", "with": "salmon DNA 0.4 mg/ml", "baseline": "random background probes", "reading": "higher = stronger binding", "shared flanks, not repeated": "GCCTAGCAC … GTCTTGATTCGCTTGACGCTGCTG"}
{"Strand": "TTAGATCCCAGACTGGATTAGTGCTAG", "fitted relative affinity [z-score]": -0.507}
{"Strand": "TCAAGTTTTCCTTCATGACTGTGCTAG", "fitted relative affinity [z-score]": 0.92}
{"Strand": "GACGGACTGGTTATCCTGACGTGCTAG", "fitted relative affinity [z-score]": -0.598}
{"Strand": "TTTACTTTCTGAATGCCCTCGTGCTAG", "fitted relative affinity [z-score]": 2.28}
{"Strand": "TCAATTTTCTTTAACTCACTGTGCTAG", "fitted relative affinity [z-score]": 1.14}
{"Strand": "CTATCTCTGTTTTTGCTTTCGTGCTAG", "fitted relative affinity [z-score]": 2.7}
{"Strand": "AGTCTTCTCCTCTAGGTTCTCGTGCTA", "fitted relative affinity [z-score]": 0.603}
{"Strand": "GACGGTTGCGGGTTTCGGGACGTGCTA", "fitted relative affinity [z-score]": 2.63}
{"Strand": "TCAATTATTGTCTTCCCACTGTGCTAG", "fitted relative affinity [z-score]": 1.08}
{"Strand": "GACAATTTCGGGTTTCGAGACGTGCTA", "fitted relative affinity [z-score]": 2.52}
{"Strand": "TTAGTTATCGGGTATCGGTTAGTGCTA", "fitted relative affinity [z-score]": 3.66}
{"Strand": "TCACTTCCCAATTCTCTTACTGTGCTA", "fitted relative affinity [z-score]": 1.82}
{"Strand": "TTCGGTCTCCTACTGCTTTAGTGCTAG", "fitted relative affinity [z-score]": 0.65}
{"Strand": "GACGGTATCCTACTGCTGACGTGCTAG", "fitted relative affinity [z-score]": -0.121}
{"Strand": "GAAGATATCGGGTATCGAGACGTGCTA", "fitted relative affinity [z-score]": 0.836}
{"Strand": "TTGGATCTCAGTATCGATTAGTGCTAG", "fitted relative affinity [z-score]": 4.68}
{"data": "Block 4", "target": "Histone acetyltransferase KAT6A, winged helix 2, GST fusion (KAT6A, Homo sapiens, UniProt Q92794, residues 85-181)", "technique": "protein binding microarray", "form": "double-stranded DNA, one strand shown", "matrix": "in vitro", "concentration": "not given", "notes": "8-mer, flanks averaged, mean of 2 arrays, mostly near background", "baseline": "not given", "reading": "higher = stronger binding", "Target sequence (chain)": "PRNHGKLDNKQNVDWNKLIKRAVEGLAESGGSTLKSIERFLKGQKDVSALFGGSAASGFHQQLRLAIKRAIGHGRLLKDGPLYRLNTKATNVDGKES"}
{"Strand": "AAACAGTC", "E-score": -0.216}
{"Strand": "GATCTCGA", "E-score": 0.059}
{"Strand": "GTCACGTA", "E-score": -0.283}
{"Strand": "ACCAGATA", "E-score": 0.0654}
{"Strand": "ATCTTCAG", "E-score": 0.165}
{"Strand": "AAGGCCTT", "E-score": -0.31}
{"Strand": "GCAAATAA", "E-score": 0.176}
{"Strand": "CGAAGGCG", "E-score": 0.177}
{"Strand": "GCCTGGAA", "E-score": -0.0222}
{"Strand": "ACTGCACA", "E-score": 0.0987}
{"Strand": "CACTGAAG", "E-score": 0.0826}
{"Strand": "ATATCCAG", "E-score": 0.0337}
{"Strand": "CGAGGCCG", "E-score": 0.0957}
{"Strand": "AGAGTTAA", "E-score": -0.161}
{"Strand": "CTCAGCGC", "E-score": 0.012}
{"Strand": "CCCGCAAG", "E-score": -0.064}
{"Strand": "ATAGCCGA", "E-score": -0.0679}
{"Strand": "CCGCTTAG", "E-score": -0.0812}
{"Strand": "CATCAAGG", "E-score": -0.145}
{"Strand": "GCCATGAC", "E-score": -0.0843}
{"Strand": "CAATGGAC", "E-score": 0.0215}
{"Strand": "AGTCACAC", "E-score": -0.194}
{"Strand": "CACCTTGG", "E-score": -0.11}
{"Strand": "CTGACAAA", "E-score": 0.127}
{"Strand": "AAAGACGT", "E-score": -0.153}
